Published values gathered from unrelated publications.
Parts stem from different laboratories: compare values within a part only. Substitutions count along the parent as printed.

Study 1
Target: RING finger protein unkempt homolog, zinc fingers 1-6, GST-SBP tag (UNK, Homo sapiens, UniProt Q9C0B0, residues 30-357)
Chain of UniProt Q9C0B0 (30-357, looked up): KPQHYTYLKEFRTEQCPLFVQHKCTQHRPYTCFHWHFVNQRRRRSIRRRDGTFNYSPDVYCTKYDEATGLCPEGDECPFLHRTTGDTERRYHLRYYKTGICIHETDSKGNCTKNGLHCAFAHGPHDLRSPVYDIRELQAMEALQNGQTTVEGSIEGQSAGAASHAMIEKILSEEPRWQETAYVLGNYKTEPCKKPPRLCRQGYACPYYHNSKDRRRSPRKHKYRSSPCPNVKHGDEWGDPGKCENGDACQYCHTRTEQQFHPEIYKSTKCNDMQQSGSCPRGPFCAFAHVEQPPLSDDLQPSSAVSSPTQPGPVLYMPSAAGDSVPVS
Technique: RNA Bind-n-Seq
Molecule type: RNA
Matrix: in vitro
Tested at: not given
Notes: RNA with constant flanks, human and mouse sites, ends assumed
Baseline: input RNA pool
Direction: higher = stronger binding
All sequences stand within: GGGAGUUCUACAGUCCGACGAUC … CAACAGAGGAUUGAGCAUCA
| Strand | bound/input enrichment [ratio] |
| --- | --- |
| GUGGCUCGCUAUGCUGCCGAGAACAACAGGGUCUUCACUUUGAACCUGUCUGCACCGUUCAUUAGCCAGUUCUUCAAGGAAGCCUUGAUGGACGUCAUGCCUUAUGUUGAUAUCCUCUUU | 0.136 |
| ACACAACUUGAUCAACGAAAGAUUAAACAUCCUACUGCCCUAGGAUUAGAAGUUGGCCAAGAAAUUCAGGUGAAAUACUUUGGACGUGACCCAGCCGAUGGAAGAAUGAGGCUUUCUCGA | 0.209 |
| UUACAGCCAUGAAAAUGUGUCGGUUAUUCCUAAUUGUCAGUUCCGGUCAAAAACAGCACGUCUUAAAACUUUUACUGCCAACCAGAUAGAUGAAAUAAAAGACCCUUCUGGACUCUUUUA | 0.237 |
| UUGAUUGCAUCAAAAUGUAUUUCAUCUGUUACAUCCAGUAUUUGUAUUUCAUUCUGAGAACCCAGAUUUCCCCCCACCACCACCACAUUAUAAAUUAAGAAAGGAGGCUAUUACUGUUUA | 1.21 |
| ACAGAAAGUUAUAGAGAUUAUAUUGUGAUGCUGGAACUUGGAGUGAGACACACAUCAUUUGGCAUUUGAGUUGAAUGGUAAUUCACAGUAAUGCUGCCGUUGUUCGGGACUUAAAGACAC | 1.98 |
| CCCUGACAGAGCACUACAGCAUCAAAGUAAAUCUUUGGGGACAGUGUAGCCCAUCUGCAUCCUAUUUAAUUUCUUCCCUUCUCCCCACCAGUGUUGUCACAGGGCUAUGUUGCUUAAAGG | 0.735 |
| AAGGAUUCUCUGCCCCGCUUUGUGCGCUCUGAAUUUUAUAAGGAGCUAAUCAAGUAGUCAUCUGGUCAGGCUUCCAAAAGUUGCCCUGUGAGUUGAGUUACAUCCUUUGUAGCAACACAG | 0.394 |
| GGUGAAGUUCAGUUGGUUCGUCAUAAGGCAUCACAGAAGGUUUAUGCAAUGAAGCUUCUUAGUAAAUUUGAAAUGAUAAAAAGAUCAGAUUCUGCUUUUUUCUGGGAAGAAAGAGAUAUU | 3.26 |
| GCUGAAGAUUUAAUUUGUGAUACCUUUGUAUGUAUGAGACACAUUCCAAAGAGCUCUAACUAUGAUAGGUCCUGAUUACUAAAGAAGCUUCUUUACUGGCCUCAAUUUCUAGCUUUCAUG | 0.163 |
| CAGAAGUAUGUUGGUGGGAAUCAACCUGAUCCUGGCCCUUUCUUCUUCUCCAUUUUCAUUCGUAAUCCCCCUCAGCAGAUCUUUACAAGCAGUUUCCUUAUAGCUCAUGUAUCUUUAGGU | 0.444 |
| AGAUUCCAGCUUAGAAAGUGCCACCAUAAUAACGACAAUUUGUAGAGAGACCAAAAAUAUUUCGAGAUCACCAUAAUGCCUUUGGUUAACCGGGAUGAAUAACCAACCGCAGGCUUGUAU | 1.2 |

Study 2
Target: CCNF, cyclin fold, Cln2 fusion (human)
Technique: yeast growth competition, sequencing
Matrix: yeast
Notes: strong parent motif
Baseline: not given
Direction: higher = stronger binding
Starting sequence: E2F2 docking peptide (human); LPAKRKLDLEGIG; partner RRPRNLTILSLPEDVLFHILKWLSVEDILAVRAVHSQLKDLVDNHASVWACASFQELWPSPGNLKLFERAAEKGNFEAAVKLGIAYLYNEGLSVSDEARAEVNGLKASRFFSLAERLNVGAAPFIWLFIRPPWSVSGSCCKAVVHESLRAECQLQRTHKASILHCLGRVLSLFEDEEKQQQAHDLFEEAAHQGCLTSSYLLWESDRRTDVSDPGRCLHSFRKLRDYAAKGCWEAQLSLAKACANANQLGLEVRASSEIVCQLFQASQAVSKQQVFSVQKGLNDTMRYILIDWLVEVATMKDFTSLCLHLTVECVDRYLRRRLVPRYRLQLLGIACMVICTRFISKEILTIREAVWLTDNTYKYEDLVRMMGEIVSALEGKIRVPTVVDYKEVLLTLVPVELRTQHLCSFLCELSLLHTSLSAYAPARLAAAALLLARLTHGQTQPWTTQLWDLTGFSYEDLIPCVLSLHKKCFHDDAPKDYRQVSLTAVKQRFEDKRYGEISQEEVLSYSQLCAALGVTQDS
| Substitution | normalised enrichment score |
| --- | --- |
| L9F | 6.94 |
| K6A | 3.35 |
| G13A | 6.74 |
| P2A | 7.98 |
| L9A | 0.862 |
| L1A | 6.66 |
| G11A | 5.04 |

Study 3
Target: Centromere-binding protein 1, full length, His-tagged (CBF1, Saccharomyces cerevisiae, UniProt P17106, residues 1-351)
Chain of UniProt P17106 (whole entry, looked up): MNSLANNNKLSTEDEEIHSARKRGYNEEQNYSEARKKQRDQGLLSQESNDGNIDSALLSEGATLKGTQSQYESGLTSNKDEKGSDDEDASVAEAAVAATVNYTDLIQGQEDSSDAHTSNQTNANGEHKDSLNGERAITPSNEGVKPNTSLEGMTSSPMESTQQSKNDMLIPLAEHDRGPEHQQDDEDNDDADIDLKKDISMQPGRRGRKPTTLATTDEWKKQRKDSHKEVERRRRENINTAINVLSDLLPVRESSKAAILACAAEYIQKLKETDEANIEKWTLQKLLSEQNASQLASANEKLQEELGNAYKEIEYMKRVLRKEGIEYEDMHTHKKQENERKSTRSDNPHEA
Technique: competition protein-binding microarray
Molecule type: double-stranded DNA, one strand shown
Matrix: in vitro
Tested at: 2 µM
Notes: whole 60-bp probe, lowest competitor level
Together with: Pho4 competitor, 0.05 µM
Direction: higher = stronger binding
All sequences stand within: … GTCTTGATTCGCTTGACGCTGCTG
| Strand | fluorescence intensity [a.u.] |
| --- | --- |
| CGCAGTATATCGTTACGCGTGAGGAGGATCTGCGCT | 69.9 |
| GTCTTGTCTCATTTTCACGTGGTATTCCCCACTTCA | 958 |
| GGACCCGGCCCCGCGCACGCGGACTCCGGGACTACA | 56.9 |
| TCAGCACCCTTTGGACTCGTGATGGCGTTGAAAGGT | 192 |
| TCTGATTGTGACAGCCACGTGGCCGGCTGAGTGTAA | 1030 |
| CTTTCCCGATCTTTTCACGTGGTTTTAGCACATTTG | 1330 |
| CATTGGTAATGTAACCACGTTTTGAGCCTGAAATGG | 160 |
| CGTCCTAGTGATTGGCCTGTGGGTGCCATGAGGAAG | 86.4 |
| GCCCTGTCCAGGATTGGCGTGGGACCGCTGGCCGCA | 48.4 |
| GATGATGTTGGTTTGACCGTGATGGATGTCCAAGTA | 67.4 |
| ATTTGGTTATGCTTGTATGCCTCTATTATTTACTTG | 68.5 |
| CATACCCAACCTTGACCAGTGGGTGAAGATATTTGT | 58.6 |
| CCTCAACAACGTCGGGGCGTGGGTATTGGGATATCG | 74.9 |
| AAACAGAGCAACCATCACGTGCAAAAAGAACTACGA | 4150 |
| ACCCTGAGAATTGGCACCGTGACGGTATTGATTCCA | 98.7 |
| CATACCCAACCTTGCGCGGTGGGTGAAGATATTTGT | 59.4 |
| GCGTCGTTTGTAGCCGACGTGCTTTATTTATACGGT | 87.4 |
| CTATTCTTGCTAATTGACGTGCGATGGTACCAGGAG | 88.1 |

Study 4
Target: Histone acetyltransferase KAT6A, winged helix 2, GST fusion (KAT6A, Homo sapiens, UniProt Q92794, residues 85-181)
Technique: protein binding microarray
Molecule type: double-stranded DNA, one strand shown
Matrix: in vitro
Tested at: not given
Notes: 8-mer, flanks averaged, mean of 2 arrays, mostly near background
Baseline: not given
Direction: higher = stronger binding
Residues (chain): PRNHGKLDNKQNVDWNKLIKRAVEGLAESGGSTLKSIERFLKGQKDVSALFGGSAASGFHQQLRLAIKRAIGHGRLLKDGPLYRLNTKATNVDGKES
| Strand | E-score |
| --- | --- |
| CATTGGGG | -0.154 |
| GTAAAAAC | -0.0394 |
| AAAGCCAC | 0.0401 |
| AAGCCGTC | 0.156 |
| ATGGAATC | 0.0689 |
| AAGGTCGC | 0.00377 |
| AGTGCCTG | 0.0586 |
| TATCCGCA | 0.112 |
| CCAACAGC | 0.0908 |
| AGCGTACC | -0.0138 |
| AATGATGT | -0.0723 |
| TTCCCCAA | -0.036 |
| ACAACTTA | -0.0862 |
| ATGGGAAA | -0.111 |
| CTCGAACA | -0.0541 |
| CAACGCGA | -0.0554 |
| GCGCAATA | -0.0135 |
| TTACCTAA | -0.0621 |
| ACCCAACC | -0.13 |
| AATAGATG | -0.0414 |

Study 5
Target: RNA binding protein fox-1 homolog 2, RRM domain, GST-SBP tag (RBFOX2, Homo sapiens, UniProt O43251-10, residues 100-194)
Technique: RNA Bind-n-Seq
Molecule type: RNA
Matrix: in vitro
Tested at: 365 nM
Notes: natural RNA segment, single round, ends assumed
Baseline: no-protein control
Direction: higher = stronger binding
All sequences stand within: GGGAGUUCUACAGUCCGACGAUC … UGGAAUUCUCGGGUGCCAA
Residues (chain): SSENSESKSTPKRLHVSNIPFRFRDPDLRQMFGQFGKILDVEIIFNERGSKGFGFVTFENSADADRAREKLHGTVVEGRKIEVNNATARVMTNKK
| Strand | RBNS enrichment (R) |
| --- | --- |
| GUCAUUGAAAAAGUAAUUUUACGUCUGGCUGGUGAGAGUAAAGUUGGAAAAAUAAUUUUGCAUUUUUUGAGCCUUUGAAAGUUGGAAAGUCCACUAACUGUUCAAAGAUA | 2.14 |
| GAGUGAGAGUUUGGAAGGUGUCCAAAUUUAAUGUAGACAUUAUCUUUUGGCUCUGAAGAAGCAAACAUGACUAGAGACGCACCUUGCUGCAGUGUCCAGAAGCGGCCUGU | 0.364 |
| ACUUGAGAGUGUUGCUCUGGUAUUCUGGGUUCUGAAGUCUGGUAUUCUGGUAUUCUGGGUUCAAAAGUAUGACUUGAGAGUGUUGCUCUGGUAUUCUGAGAGUUGCUCUG | 0.327 |
| UUAUUUAGGCUUAGUGUUGUGGGCACCAAUGUCGAGCAUCGUUGUGACUUGUGCUGUAUGAUUCUCACUGAAGAAUUUCCUUUCAGCCAAGAAGCAGUGAGGUCUGGGAA | 0.985 |
| AUACAUAUAUACACACUCCUAACAUUCCCACUCGGGAGGCCAAGGCCAGCACAUCUCUAAAUUUGAGGCCAGCCUGCUCUACAAAAAGAAUACCAUUCCAGCCAAAGCUA | 0.543 |
| AGGGAAUAAGCCAUGACGUCAAUAGCAGCCCAGGGCACUUCAGAGUAGAGGGCUUGGGAAGAUCUUUUAAAAAGGCAGUAGGCCCGGUGUGGUGGCUCACGCCUAUAAUC | 0.726 |
| GUAAAUGAAAAUGCAGCUCUGCACGAGUUUGAAACCGUCAUACCUCCUUCUAUUAGGAAUGGCAUAUACUGAGGUGGUCGUAAGUCUUAACUUCUAAAAUUUUAAAUAAA | 0.644 |
| AGAAAUGCUGUAUUUAUUGAUAACAUUGGCUAGGAGACUGAUGGACUGGCACACUUUCCUGUUUUAAUUUAGAGCCUUUGAUUAUUCCAUAGAGACAACCUGUGUGCUUU | 0.592 |
| CCCAAGGGGUGACCCUGCCCCUCAAAUUCAUGGUGUCCCCACCGUCUCAAUGUGAAUAGUCUCAGAGCUCUGUGCACAGAGAGGACAGUGGCCACAACACAUAAGGUGCC | 0.362 |
| UAAAAUUAUUCCCAAAAGUGUUUCUCCUAAGAGUGCAGUUCCCAUGAGUCACUUCCUGAACCCAUUGACCAAAGGUGGACAGAGACAAUCCUGUAGACCUUGACAUUCAG | 0.294 |
| GUUUAAGCAUUCUUGUUGCAUUGUCUCUGCAGAUUCUAUUUUUGUUUACAAUAUUAAAAUGUAUGUUAGCAAAAUGGGUGGAUUUUCAAAUAAAAUGCAGCUUCCACAAA | 0.538 |
| UGACUGGGCUGGUCCCUCUCAUUUGUACAGUCUGAAUGACAGUUCUUCUUAUCAUUCAGACGUCCCUCCAGAUGCCCAGGGUGAGUGUAACAUUUACCCACAACCUGGCU | 0.194 |

A few entries again (study 2):
| Substitution | normalised enrichment score |
| --- | --- |
| G11A | 5.04 |
| L9A | 0.862 |
| G13A | 6.74 |
| P2A | 7.98 |
| L1A | 6.66 |
| L9F | 6.94 |
| K6A | 3.35 |
